Results pooled from the literature.
Numbered parts are unrelated; each lists some results of a single study. Positions count from the first letter of the parent shown.

Series 1
Target: Interferon regulatory factor 5, full length, phosphomimetic (IRF5, Homo sapiens, UniProt Q13568-2, residues 1-514, K96S/S451D/S453D/S456D/S462D)
Method: protein-binding microarray
Molecule type: double-stranded DNA, one strand shown
Medium: in vitro
Concentration: 250 nM
Setting: 60-bp whole probe
With: salmon DNA 0.4 mg/ml
Relative to: random background probes
Direction: higher = stronger binding
Constant ends, left off below: GCCTAGCAC … GTCTTGATTCGCTTGACGCTGCTG
Strand	log fluorescence [z-score]
TCTACTTCTCTTTTGGCTTTGTGCTAG	1.3
TTAGAGTTCAGACTGGATTAGTGCTAG	-0.279
TCATCACTCAATCTCAAACTGTGCTAG	0.557
TTTTCTCTGGTTCTTGCTTGGTGCTAG	1.42
TCTGTTTCTGATATGGTATGGTGCTAG	2.33
TTAGGACTGCTTATCCTTGAGTGCTAG	-0.265
TTAGGACTGTTTATCCTTTAGTGCTAG	-0.185
TTTCGTATCTTCATTGTCATGTGCTAG	10.1
TTAGATATCTGGACTGGATTAGTGCTA	0.204
TTAGGTTTCCACTATCGGTTAGTGCTA	7.63
TCACTTATTGCTTCCTCACTGTGCTAG	0.662
TCACCTCTCTGTCCCCCACTGTGCTAG	0.213
GACGATCTCAGTCTCGAAACGTGCTAG	0.566
TTAGGTATCCTTCTCTTTTAGTGCTAG	0.681
TTAGGCATCGACTATCGGTTAGTGCTA	6.45
TCACATTTAATTATATGACTGTGCTAG	0.692
GACGGTTTCGACTATCGGCACGTGCTA	7.1
ACTCTAATCTCACTCTGTCCGTGCTAG	0.377
GACGCTTTCGACTATCGGGACGTGCTA	7.51
TTAGGTCTTGGTTTCGGTTAGTGCTAG	9.1
TGGGTGACTCTTACTCATTAGTGCTAG	-0.658
GACGGTATCGGGTTCCGGGACGTGCTA	2.35
TTGGGTTTCGACACTGGGTTAGTGCTA	4.75
TCAGAAATTTCTTTCTAACTGTGCTAG	1.76
TTAGGACTGGGACTCGGTTAGTGCTAG	-0.455

Series 2
Target: CCNB3, cyclin fold, Cln2 fusion (human)
Method: yeast growth competition, sequencing
Medium: yeast
Setting: weak parent motif
Relative to: not given
Direction: higher = stronger binding
Parent: NPAT docking peptide (human); PCHRRVLCFDSTT; partner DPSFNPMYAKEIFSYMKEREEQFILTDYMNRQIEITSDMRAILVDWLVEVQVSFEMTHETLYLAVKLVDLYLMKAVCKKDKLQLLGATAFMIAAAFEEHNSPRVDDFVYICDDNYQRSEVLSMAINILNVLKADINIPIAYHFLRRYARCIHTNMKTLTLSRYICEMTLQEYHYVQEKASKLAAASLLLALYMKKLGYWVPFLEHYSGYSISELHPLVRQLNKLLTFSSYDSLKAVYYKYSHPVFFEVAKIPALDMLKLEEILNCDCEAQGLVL
Change	normalised enrichment score
PCHARVLCFDSTT [R4A]	0.706
ACHRRVLCFDSTT [P1A]	0.143
PCHRAVACFDSTT [R5A L7A]	0.162
PCHRRALCFDSTT [V6A]	0.18
PCHRKVLCLDSTT [R5K F9L]	0.00805
PCHRRVLCFDSTA [T13A]	0.0227
PAHRRVLCFDSTT [C2A]	0.63
PCHRKVLCFDSTT [R5K]	0.659
PCHRAVLCFDSTT [R5A]	0.153

Series 3
Target: JUN, bZIP domain (human)
Method: DHFR protein complementation
Medium: yeast
Setting: single substitutions, most at no-binding floor
Relative to: wild-type JUN-FOS pair
Direction: higher = stronger binding
Parent: JUN, bZIP domain (human); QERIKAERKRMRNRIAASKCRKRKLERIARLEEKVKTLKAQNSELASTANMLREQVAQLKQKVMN
Change	binding fitness [natural log]
E33P	-1.29
A46P	-1.35
V56N	-1.24
L38S	-1.34
L45P	-1.43
Q41C	-1.39
L31S	-1.27
V56T	-1.22
L31C	-1.27

Series 4
Target: ABI1, truncated, D143A, DHFR fusion (Arabidopsis thaliana)
Method: DHFR PCA, deep sequencing
Medium: yeast
Setting: methotrexate growth selection, single substitutions
With: (+)-ABA 710 µM
Relative to: wild-type fitted maximum
Direction: higher = stronger binding
Parent: PYL1, truncated, DHFR fusion (Arabidopsis thaliana); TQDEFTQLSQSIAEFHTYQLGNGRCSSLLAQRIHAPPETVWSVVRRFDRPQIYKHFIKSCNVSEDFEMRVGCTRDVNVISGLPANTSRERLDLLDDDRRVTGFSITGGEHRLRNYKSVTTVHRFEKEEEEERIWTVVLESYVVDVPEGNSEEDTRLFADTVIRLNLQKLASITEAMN
Change	relative binding score [%]
S63A	106
P36M	93.8
R123K	113
E127C	104
Q10C	105
D3Y	100
V40F	-53.3
E4Y	98.7
S104R	82.8
D48C	74
L156K	91
R88N	103
E38S	98

Series 5
Target: Ras GTPase-activating protein-binding protein 1, RRM domain (G3BP1, Homo sapiens, UniProt Q13283)
Chain of UniProt Q13283 (whole entry, looked up): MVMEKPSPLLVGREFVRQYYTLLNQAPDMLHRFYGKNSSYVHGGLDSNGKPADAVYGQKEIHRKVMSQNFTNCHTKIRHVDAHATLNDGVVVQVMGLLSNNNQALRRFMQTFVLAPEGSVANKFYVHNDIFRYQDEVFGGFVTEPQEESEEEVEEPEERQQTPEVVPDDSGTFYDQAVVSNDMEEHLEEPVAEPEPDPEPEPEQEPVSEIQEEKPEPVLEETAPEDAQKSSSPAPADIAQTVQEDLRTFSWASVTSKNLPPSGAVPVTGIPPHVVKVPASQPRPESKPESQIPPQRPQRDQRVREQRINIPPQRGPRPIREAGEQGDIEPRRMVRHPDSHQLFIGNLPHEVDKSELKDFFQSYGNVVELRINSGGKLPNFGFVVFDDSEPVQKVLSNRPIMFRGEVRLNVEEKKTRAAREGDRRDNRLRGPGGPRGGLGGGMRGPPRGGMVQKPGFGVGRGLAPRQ
Method: RNA Bind-n-Seq
Molecule type: RNA
Medium: in vitro
Concentration: 1 µM
Setting: whole 134-nt RNA, ends assumed
With: 150 mM KCl
Relative to: input library
Direction: higher = stronger binding
Constant ends, left off below: GGGAGUUCUACAGUCCGACGAUC … UGGAAUUCUCGGGUGUCAAGG
Strand	log2 enrichment
GUCCUGUGCUACACAUCGUAUGUACCGAAUCGGGGUUUGGGGUUUUUGGGGUUUGGGGAAAGUAUUAUGUUACGCCGUUCGGAUCUGCAC	1.71
GCAGGAAGUAAAAACAAAUGGAAAUGCUUCGGAUAGUGGCAGGGGUGGGCGUUGCUAAGGAAAGGGUGGGAUGGGAGUGGGUAAAGAGUU	0.816
CUCAAGUCCUGUGCUACACAUCGUAUGUACCGAAUCGGAAGGAAGGGAAGGGGAAAGUAUUAUGUUACGCCGUUCGGAUCUGCACUUCCA	-0.232
UUCAGGAUGAAGAUGCAUCAGGGGGCGAUCAAGAUCAGGAAGAAAGAAGAUGGAACAAAAGGACUCAGCAGAUGCUUCAUGGUCUUCAGG	-0.224
AGUCCUGUGCUACACAUCGUAUGUACCGAAUCGGGAAAAAGGGAAAAAGGAAAAAGGAAAGUAUUAUGUUACGCCGUUCGGAUCUGCACU	0.00923
CUGUGCUACACAUCGUAUGUACCGAAUCGGGGUUUUUUUGGGGAAAAAAAGGGGUUUGGGGAAAGUAUUAUGUUACGCCGUUCGGAUCUG	0.336
UGGCCCUUCCCCUGGAGCCAUGCUGGGCCCUAGCCCGGGUCCCUCGCCGGGCUCCGCCCACAGCAUGAUGGGGCCCAGCCCAGGGCCGCC	-0.894
CUCAAGUCCUGUGCUACACAUCGUAUGUACCGAAUCGGGGAAGGAAGGGAAGGAAAGUAUUAUGUUACGCCGUUCGGAUCUGCACUUCCA	-0.276
AAGUCCUGUGCUACACAUCGUAUGUACCGAAUCGGUUUUUUUGGAAAAAGGUUUGGAAAGUAUUAUGUUACGCCGUUCGGAUCUGCACUU	-0.635
UACUAUGAAGCCUUGUGCAAAUCCCUCGACUGGCAGAUAGACGUGGACCUACUCAAUAAAAUGAAGAAGGCAAAUGAAGAUGAGUUGAAG	0.0268
CCUGUGCUACACAUCGUAUGUACCGAAUCGGGAAAAAAAGGGAAAAAGGGUUUUUUUGGGAAAGUAUUAUGUUACGCCGUUCGGAUCUGC	-0.149
UCCUCAAGUCCUGUGCUACACAUCGUAUGUACCGAAUCGGAGGGGAGGAGGGAAAGUAUUAUGUUACGCCGUUCGGAUCUGCACUUCCAG	-0.223
CCUGUGCUACACAUCGUAUGUACCGAAUCGGGGAAAAAAAGGGGUUUUUUUGGGGAGGGGAAAGUAUUAUGUUACGCCGUUCGGAUCUGC	0.581
ACCAUGCAGGUGGGCAUCUUUGGGAAGUGGGGCAAGGGGGGGAUAGGGAGGGCGGUAACACUUUGGGAACAGGUGGUCCCAGGUCGUUUC	0.797

Series 6
Target: PABPC1L2, full length, GST fusion (mouse, UniProt A0ABA7IW68)
Method: RNAcompete
Molecule type: RNA
Medium: in vitro
Concentration: 20 nM
Setting: 7-mer, probes averaged, single round
Relative to: mean of 7-mers
Direction: higher = stronger binding
Construct (chain): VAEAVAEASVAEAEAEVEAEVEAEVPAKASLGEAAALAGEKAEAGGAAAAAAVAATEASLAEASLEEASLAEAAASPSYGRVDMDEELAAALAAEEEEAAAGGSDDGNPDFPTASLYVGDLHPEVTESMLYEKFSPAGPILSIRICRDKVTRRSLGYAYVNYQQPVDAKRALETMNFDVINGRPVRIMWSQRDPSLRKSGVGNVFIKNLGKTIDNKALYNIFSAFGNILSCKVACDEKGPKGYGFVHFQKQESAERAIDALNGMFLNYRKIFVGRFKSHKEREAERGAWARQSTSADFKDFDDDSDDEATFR
Strand	7-mer Z-score
CCCCAUC	-0.485
UGUUGCG	-0.287
AGCAUAU	-0.0627
GCACAGG	0.177
CGUAUCA	-0.162
UUAUAUG	-0.0736
AUCGAGG	-0.0192
ACCUUCA	-0.233
UGUAUUA	-0.155
CCAAUUU	-0.135
GAUCCAU	-0.164
UUACUCG	-0.242
AGUGGUA	-0.0409
CGGCAGA	0.189
ACCUUGC	-0.3
AUUACUG	-0.219
UACGGUC	-0.22
ACGCAAC	-0.101
AGCGUCA	-0.22
UCACGCC	-0.269
CGAGUGA	0.0805

A few entries again (series 6):
Strand	7-mer Z-score
CGGCAGA	0.189
UGUUGCG	-0.287
CCAAUUU	-0.135
AGCGUCA	-0.22
UUACUCG	-0.242
AGCAUAU	-0.0627
ACCUUGC	-0.3
UCACGCC	-0.269
CCCCAUC	-0.485
AGUGGUA	-0.0409
UACGGUC	-0.22
UGUAUUA	-0.155
